# Published values collected from several papers.
# ± marks the error that the study gave.
Compound,assay,system,setting,how to read,measurement,result
CO[C@H]1C[C@@H]2CC[C@@H](C)[C@@](O)(O2)C(=O)C(=O)N2CCCC[C@H]2C(=O)O[C@H]([C@H](C)C[C@@H]2CC[C@@H](OC(=O)NCCOCCOCCOCCOCCOCCOCCOCCOCCC(=O)N3CCc4cc(Cn5nc(-c6ccc7oc(N)nc7c6)c6c(N)ncnc65)ccc4C3)[C@H](OC)C2)C[C@@H](O)[C@H](C)/C=C(\C)[C@@H](O)[C@@H](OC)C(=O)[C@H](C)C[C@H](C)/C=C/C=C/C=C/1C,,"human, plasma","intravenous, 10 mg, Cycle 1 Day 15, 1 h infusion",,unbound AUClast,22.3 nM·h
CCn1c(=O)c(-c2cc(NC(=O)Nc3ccccc3)c(F)cc2Br)cc2cnc(N)cc21,"plasma protein binding, ultracentrifugation","human subjects with hepatic impairment, plasma",24 h post-dose,,unbound fraction,0.2 to 1.4%
Nc1nc(-n2cc(C(=O)O)c(=O)c3cc(F)c(N4CC(O)C4)c(Cl)c32)c(F)cc1F,,"human, plasma",450 mg,,unbound Cmax,2.7 µM
O=[N+]([O-])c1cn2c(n1)OC[C@@H](OCc1ccc(N3CCOCC3)c(F)c1)C2,,human,,,unbound fraction,0.49
CCn1c(=O)c(-c2cc(NC(=O)Nc3ccccc3)c(F)cc2Br)cc2cnc(NC)cc21,"plasma protein binding, ultracentrifugation","healthy human subjects, plasma","oral, 50 mg, 24 h post-dose",,unbound fraction,≤ 0.6%
CC#CC(=O)N1CCC[C@H]1c1nc(-c2ccc(C(=O)Nc3ccccn3)cc2)c2c(N)nccn12,noncompartmental analysis,"human, severe impairment, plasma","oral, 50 mg, geometric mean",,unbound Cmax,4.4 ng/mL
NC[C@@]1(CC(=O)O)[C@@H]2CC[C@H]3C[C@@H]2[C@@H]1C3,,"human, severe renal impairment, plasma",dose not given,reference: normal renal function,unbound Cmax increase,21.7%
Cn1cnc2c(F)c(Nc3ccc(Br)cc3F)c(C(=O)NOCCO)cc21,,"human, plasma",30 mg,,unbound Cmax,0.0199 µM
N[C@@H]1c2cccnc2[C@H](OC(=O)N2CCC(n3c(=O)[nH]c4ncccc43)CC2)CC[C@H]1c1cccc(F)c1F,,"human, plasma","oral, 75 mg",,unbound Cmax,0.048 µM
C#C[C@]1(OC(C)=O)CC[C@H]2[C@@H]3CCC4=CC(=NO)CC[C@@H]4[C@H]3CC[C@@]21CC (mixture of isomers),,"human, plasma",,,unbound fraction,0.0026
C[C@H]1CNC(=O)c2cnn3ccc(nc23)N[C@H](C)c2cc(F)ccc2O1,,"human, plasma","concentration not given, steady state recommended dose",,unbound average concentration,39 nM
O=C1COCCN1c1ccc(CO[C@@H]2COc3nc([N+](=O)[O-])cn3C2)cn1,,human,,,unbound fraction,> 0.7
C#Cc1cccc(Nc2ncnc3cc(OCCOC)c(OCCOC)cc23)c1,,human,mean,,unbound fraction in plasma,0.065
N#Cc1ccc(C(c2ccc(C#N)cc2)n2cncn2)cc1,,"human patients, plasma","oral, 10 mg daily",,unbound Cmax at steady state,0.74 ± 0.23 µM
CCS(=O)(=O)N1CC(CC#N)(n2cc(-c3ncnc4[nH]ccc34)cn2)C1,,"human, plasma","oral, dose not given",,unbound Cmax,0.072 µM
CO[C@H]1/C=C/O[C@@]2(C)Oc3c(C)c(O)c4c(O)c(c5c(nc6cc(C)ccn65)c4c3C2=O)NC(=O)/C(C)=C\C=C\[C@H](C)[C@H](O)[C@@H](C)[C@@H](O)[C@@H](C)[C@H](OC(C)=O)[C@@H]1C,,"human, plasma",200 mg,,unbound Cmax,0.000813 µM
CCO[C@H]1CCN(Cc2c(OC)cc(C)c3[nH]ccc23)[C@H](c2ccc(C(=O)O)cc2)C1,,"human mild hepatic impairment, plasma","oral, 200 mg single dose, median",,unbound AUC0–12,4790 ng·h/mL

# Repeated from above:
Compound,assay,system,setting,how to read,measurement,result
NC[C@@]1(CC(=O)O)[C@@H]2CC[C@H]3C[C@@H]2[C@@H]1C3,,"human, severe renal impairment, plasma",dose not given,reference: normal renal function,unbound Cmax increase,21.7%
